Results of several laboratories.
Compare with care: the assays were run in different laboratories. “And” joins repeats or separate records; there may be more than shown. ± gives the spread as reported.

| Compound | cell line | test | setting | scale | quantity | result |
| --- | --- | --- | --- | --- | --- | --- |
| O=c1[nH]nc(OCCCc2ccc(Cl)cc2)c(NCc2cccnc2)c1Br | HEK-293T | RNA-seq GSEA, item: HALLMARK_MYC_TARGETS_V1 | concentration not given | direction not given | normalized enrichment score | -1.49 |
| CCn1cc(-c2cc(Cn3ccoc3=N)cc3c2CCN([C@@H](C)c2cc(OC)ccn2)C3=O)c(C(F)(F)F)n1 | COLO792 | cell growth | 120 h | – | EC50 | 25.7 µM |
| Cn1c(Nc2nc3ccc(C(F)(F)F)cc3s2)nc2cc(C(=O)NCCOCCO)ccc21 | SH-SY5Y | RNA-seq, item: ITGA2 mRNA | 5 µM, 5 h | baseline: untreated cells | fold change | 2.25 |
| C[C@H]1[C@H](C)CC[C@]2(C)CC[C@]3(C)C(=CC(=O)[C@@H]4[C@@]5(C)CC[C@@H](O)[C@](C)(C(=O)NCc6cn(-c7cccc(Br)c7)nn6)[C@@H]5CC[C@]43C)[C@H]12 | human PBMCs, ConA-activated | flow cytometry | 5 µM, 24 h | baseline: T cells | CD8+ T cells | 39% |
| O=C(/C=C/C=C/C=C/C1CCCCC1)NC1=C[C@@](O)(/C=C/C=C/C=C/C(=O)NC2=C(O)CCC2=O)[C@@H]2O[C@@H]2C1=O | NCI-H1944 | cell growth, CellTiter-Glo | 78 h | – | GI50 | 24.8 µM |
| Clc1ccc(C(Cn2ccnc2)OCc2ccc(Sc3ccccc3)cc2)c(Cl)c1 (centres unmarked) | THP-1 | pyroptotic LDH release | 2 µM, 40 min, with: LPS then nigericin | – | inhibition | 1.49% |
| CN(C)CCOc1ccc2[nH]c(C(=O)NCC#Cc3ccc(C(=O)NO)cc3)cc2c1 | HEK293T ATF4-FLuc reporter | ATF4 reporter gene, activator, luciferase reporter | – | – | EC50 | 0.596 µM |
| Nc1cccc2c1C(=O)N(C1CCC(=O)NC1=O)C2=O (centres unmarked) | bone marrow CD138+ myeloma cells | XTT | 0.8 µM, mean of three patients | – | viability | 110% |
| Cc1cc(C)n(-c2nc(-c3ccc(Cl)cc3)c3c(NC(=O)c4ccccc4)nnc-3[nH]2)n1 | SF-268 | SRB | 10 µM, NCI60 single-dose screen | baseline: untreated | cell growth | 98.1% |
| OC[C@H]1O[C@@H](n2cnc3c(O)nc(O)nc32)[C@H](O)[C@@H]1O | THP-1 | pyroptotic LDH release | 2 µM, 40 min, with: LPS then nigericin | – | inhibition | 4.4% |
| NS(=O)(=O)c1ccc(Oc2ccc(NC(=O)N[C@@H]3[C@@H]4COc5c(F)ccc(F)c5[C@@H]43)nc2)cc1 | HEK293T ATF4-FLuc reporter | ATF4 reporter gene, activator, luciferase reporter | – | – | EC50 | > 9.96 µM |
| COc1cnc2cccc(N3CCc4c(cc(Cn5ccnc5C)cc4-c4cn(C)nc4C(F)(F)F)C3=O)c2c1 | HCC1438 | cell growth | 120 h | – | EC50 | > 30 µM |
| O=C(O)COCC(=O)O | hepatocytes, iPSC-derived, line L2 | cell viability, RealTime-Glo MT | 72 h, differentiation day 23 | – | IC50 | 15400 µM |
| CC(=O)C(C)O (centres unmarked) | THP-1 | pyroptotic LDH release | 2 µM, 40 min, with: LPS then nigericin | – | inhibition | -16.3% |
| CC(C)(C)NC(=O)c1cncn1C1CCN(c2ccc(-c3nnc(C(F)(F)F)o3)cn2)CC1 | HDMEC | qPCR, item: L-GILZ | concentration not given, unit not given | baseline: DMSO | mRNA level | 2.62 |
| Nc1nc(-n2cc(C(=O)O)c(=O)c3cc(F)c(N4CC(O)C4)c(Cl)c32)c(F)cc1F | THP-1 | pyroptotic LDH release | 2 µM, 40 min, with: LPS then nigericin | – | inhibition | -5.22% |
| CC(C)C[C@H](NC(=O)CNC(=O)c1cc(Cl)ccc1Cl)B(O)O | HEK293T ATF4-FLuc reporter | ATF4 reporter gene, activator, luciferase reporter | – | – | EC50 | 0.533 µM |
| Cn1cc(-c2ccc(-c3cncc(Cl)c3N3CCC4(CCNC4=O)CC3)cc2)cn1 | COLO 205 | gene expression, microarray, item: NLRP1 mRNA | concentration not given, 2 h | baseline: untreated cells | log2 fold change | 2.72 |
| CC/C(=N\NC(=O)NCc1cccc(O)c1)c1ccc(O)c(C)c1O | SK-OV-3 | Western blot, item: LATS | 10 µM, 6 h, 2D culture, unit not given | baseline: β-actin | protein level | 0.87 ± 0.34 |
| CCn1cc(-c2cc(Cn3ccnc3)cc3c2CCN([C@H](c2cc(OC)ccn2)C2CC2)C3=O)c(C(F)(F)F)n1 | SW48 | cell growth, inhibitor | 120 h | – | EC50 | 0.634 µM |
| CCCN1CCN(c2ccc3[nH]c(-c4ccc5[nH]c(-c6ccc(OCC)c(OCC)c6)nc5c4)nc3c2)CC1 | RXF 393 | SRB | 10 µM, 48 h | – | growth percent | -92.3% |

| Compound | cell line | test | setting | scale | quantity | result |
| --- | --- | --- | --- | --- | --- | --- |
| O=P(O)(O)O[C@H]1[C@H](OP(=O)(O)O)[C@@H](OP(=O)(O)O)[C@H](OP(=O)(O)O)[C@@H](OP(=O)(O)O)[C@H]1OP(=O)(O)O | THP-1 | pyroptotic LDH release | 2 µM, 40 min, with: LPS then nigericin | – | inhibition | -19.3% |
| CCC[C@@H]1O[C@@H]2C[C@H]3[C@@H]4C[C@H](F)C5=CC(=O)CC[C@]5(C)[C@@]4(F)[C@@H](O)C[C@]3(C)[C@]2(SC)O1 | HEK293T ATF4-FLuc reporter | ATF4 reporter gene, activator, luciferase reporter | – | – | EC50 | 7.81 µM |
| O[C@@H]1CO[C@H]2[C@@H]1OC[C@@H]2O | THP-1 | pyroptotic LDH release | 2 µM, 40 min, with: LPS then nigericin | – | inhibition | -8.01% |
| COc1ccc2c(N(C)c3ccc(/C(C)=N/OCCN)cc3)c3c(Cl)coc3nc2c1 | docetaxel-resistant VCaP-AI | trypan blue exclusion | 1 µM, 72 h | – | inhibition of cell proliferation | 70 to 80% |
| N#C/C(=C1/SC[C@@H](c2ccc(Cl)cc2Cl)S1)n1ccnc1 | THP-1 | pyroptotic LDH release | 2 µM, 40 min, with: LPS then nigericin | – | inhibition | 26% |
| Cc1cc(Nc2ncc(Cl)c(Nc3ccccc3S(=O)(=O)C(C)C)n2)c(OC(C)C)cc1C1CCNCC1 | Ba/F3 EML4-ALK variant 1 L1196Q | cell viability | – | – | Emax | 100% |
| CNCc1ccc(C)c(NC(=O)c2ccc(Nc3nc(-c4ccccc4)c4ccccc4n3)cc2)c1 | THP-1 | pyroptotic LDH release | 2 µM, 40 min, with: LPS then nigericin | – | inhibition | 33.7% |
| COc1cc(/C=C/C(=O)N2CCC=CC2=O)cc(OC)c1OC | MDA-MB-468 | qRT-PCR, item: FOXM1 | 30 µM, 6 h | baseline: time zero | mRNA level | 76.9 ± 4.8% |
| COc1cc(/C=C/C(=O)O)ccc1O | Caco-2/THP-1 co-culture | – | concentration not given, with: LPS 100 ng/mL | – | kynurenine level | 140 ± 8.3 % change |
| CCc1c(-c2ccccc2)c(-c2ccccc2)nn1-c1ccccc1-c1cccc(OCC(=O)O)c1 | mouse osteoclasts | RT-qPCR, item: Oscar | 1 µM, unit not given, with: M-CSF plus RANKL | baseline: bone marrow macrophages | mRNA level | 1.68 and 1.49 and 1.43 |
| O=c1c(O)c(-c2ccc(O)cc2)oc2cc(O)cc(O)c12 | coculture, Caco-2, THP-1 | ELISA | 250 ng/mL, 8 h, with: LPS, IFNγ, ATP | baseline: untreated control | IL-1β level | 7.2 ± 1 fold change |
| C=CC[C@@H]1/C=C(\C)C[C@H](C)C[C@H](OC)[C@H]2O[C@@](O)(C(=O)C(=O)N3CCCC[C@H]3C(=O)O[C@H](/C(C)=C/[C@@H]3CC[C@@H](O)[C@H](OC)C3)[C@H](C)[C@@H](O)CC1=O)[C@H](C)C[C@@H]2OC | HEK293T ATF4-FLuc reporter | ATF4 reporter gene, activator, luciferase reporter | – | – | EC50 | 4.45 µM |
| CC(C)(c1ccc(O)cc1)c1ccc(O)cc1 | HepG2 spheroids | Hoechst flow cytometry | 0.01 µM, 96 h | – | S phase cells | 9.77 ± 2.12% |
| CCCC(=O)[O-].[Na+] | Caco-2/THP-1 co-culture | – | concentration not given, with: LPS 500 ng/mL | – | kynurenine level | 158 ± 10 % change |
| Cc1[nH]c2ccccc2c1CCNCc1ccc(/C=C/C(=O)NO)cc1 | HEK293T ATF4-FLuc reporter | ATF4 reporter gene, activator, luciferase reporter | – | – | EC50 | 0.11 µM |
| COc1cc2ncnc(Nc3ccc(Oc4ccccc4)c(C)c3C)c2cc1OC.Cl | Calu-6 (KRAS Q61K) | resazurin | concentration not given, 72 h, with: trametinib | direction not given | Bliss synergy score | 26.4% |
| Nc1ccnc(-c2ccccc2)c1 | TMEM175 knockout MEFs | – | concentration not given | – | DQ-BSA dequenching | no effect |
| CCCCc1oc2ccc(NS(C)(=O)=O)cc2c1C(=O)c1ccc(OCCCN(CCCC)CCCC)cc1 | human embryonic stem cell aggregates | mRNA level, microarray, item: KCNQ5 | 0.5 µM, 120 h | baseline: untreated, down-regulated | fold change | 3.9 fold |
| COc1cc(CCC(=O)O)ccc1O | coculture, Caco-2, THP-1 | ELISA | 250 ng/mL, 8 h, with: LPS, IFNγ, ATP | baseline: untreated control | IL-1β level | 11.3 ± 1.3 fold change |
| CCOc1cc2cc(CO)c(CO)c(-c3ccnc(-n4nc(-c5cccnc5)c5ccccc5c4=O)c3)c2cc1OCC | HEK293T ATF4-FLuc reporter | ATF4 reporter gene, activator, luciferase reporter | – | – | EC50 | 1.5 µM |

Excerpt of the above:
| Compound | cell line | test | setting | scale | quantity | result |
| --- | --- | --- | --- | --- | --- | --- |
| O=C(/C=C/C=C/C=C/C1CCCCC1)NC1=C[C@@](O)(/C=C/C=C/C=C/C(=O)NC2=C(O)CCC2=O)[C@@H]2O[C@@H]2C1=O | NCI-H1944 | cell growth, CellTiter-Glo | 78 h | – | GI50 | 24.8 µM |
| Clc1ccc(C(Cn2ccnc2)OCc2ccc(Sc3ccccc3)cc2)c(Cl)c1 (centres unmarked) | THP-1 | pyroptotic LDH release | 2 µM, 40 min, with: LPS then nigericin | – | inhibition | 1.49% |
| CN(C)CCOc1ccc2[nH]c(C(=O)NCC#Cc3ccc(C(=O)NO)cc3)cc2c1 | HEK293T ATF4-FLuc reporter | ATF4 reporter gene, activator, luciferase reporter | – | – | EC50 | 0.596 µM |
